Results from different studies.
Lines come from different studies, so protocols differ.
Sample: plasma

| SMILES | species | route | dose | setting | endpoint | result |
| --- | --- | --- | --- | --- | --- | --- |
| Cc1cc2c(cc1O)C=C1C=CC(=O)C(C)(C)[C@H]1CC2 | male Sprague-Dawley rat | oral | 20 mg/kg |  | AUC(0-inf) | 46.5 ng·h/mL |
| CC1(C)C(NC(=O)C(=NOC2(C(=O)O)CCC2)c2csc(N)n2)C(=O)N1OS(=O)(=O)O (centres unmarked) | rat | intravenous | 10 mg/kg | single dose | AUC | 16200 ng·h/mL |
| OC1(C(F)(F)F)CCN(c2nc(Nc3ccnc(C(F)(F)F)c3)nc(-c3cccc(C(F)(F)F)n3)n2)C1 (centres unmarked) | Sprague-Dawley rat | oral | 10 mg/kg |  | AUC(0-inf) | 17200 ng·h/mL |
| O=c1c(-c2ccc(Cl)c(CN3CCOCC3)c2)coc2cc(O)ccc12 | male Sprague-Dawley rat | oral | 10 mg/kg |  | AUC(0-inf) | 477 ng·h/mL |
| CCCN(C)c1cc(C(F)(F)F)nc(SCCC(=O)NCc2ccco2)n1 | male Wistar rat | intraperitoneal | 25 mg/kg | single dose | AUC(0-t) | 884 ng·h/mL |
| COc1cc(-c2cc(=O)c3ccc(OCCCn4c(Cl)nc5ccccc54)cc3o2)cc(OC)c1OC | male Sprague-Dawley rat | intravenous | 10 mg/kg |  | AUC(0-t) | 174 ng·h/mL |
| COC1C(c2ccc(Cl)c(Cc3ccc(OC4CCOC4)cc3)c2)OC(CO)C(O)C1O (centres unmarked) | Sprague-Dawley rat | oral | 5 mg/kg |  | AUC | 8280 ng·h/mL |
| COC(=O)C1=CNC=C(C(=O)OC)C1c1ccc(F)c(C(F)(F)F)c1 | male Sprague-Dawley rat | intravenous | 5 mg/kg |  | AUC(0-inf) | 850 ng·h/mL |
| O=C(C1CCN(c2nnnn2-c2ccccc2)CC1)N1CCCc2ccccc21 | male Sprague-Dawley rat | intravenous | 1 mg/kg |  | AUC(0-t) | 507 ng·h/mL |
| C/C(N)=N/C(=N\S(=O)(=O)c1ccc(C(F)(F)F)cc1)N1C[C@H](c2ccccc2)C(c2ccc(Cl)cc2)=N1 | male Sprague-Dawley rat | oral | 3 mg/kg |  | AUC(0-inf) | 2730 ng·h/mL |
| CCC(CC)n1c(Cc2cccs2)nc2cc(C(=O)N[C@@H](CC(=O)O)c3ccccc3)ccc21 | male Sprague-Dawley rat | intraperitoneal | 10 mg/kg |  | AUC(0-t) | 3540 ng·h/mL |
| Cc1cccc(Cn2ncc3c4cc(F)c(CN(C)C)cc4n(C)c3c2=O)n1 | Sprague-Dawley rat | oral | 10 mg/kg |  | AUC(0-t) | 1290 ng·h/mL |
| CN1CCC[C@@H]1C(=O)N[C@@H](Cc1ccc(-c2ccccc2)cc1)B(O)O | male Sprague-Dawley rat | oral | 1 mg/kg |  | AUC(0-t) | 0.853 µM·h |
| COc1cc(OC)c2c(=O)cc(-c3cc(C)c(OCCCN4CCN(C)CC4)c(C)c3)oc2c1 | male Sprague-Dawley rat | oral | 20 mg/kg | single dose | AUC(0-t) | 7040 ng·h/mL |
| COc1cc(C2C3=C(COC3=O)N(CCO)c3cc4c(cc32)CCC4)cc(OC)c1OC (centres unmarked) | female Sprague-Dawley rat | intraperitoneal | 50 mg/kg |  | AUC(0-inf) | 3380 ng·h/mL |
| CCC(CC)n1c(Cc2ccco2)nc2cc(C(=O)N[C@@H](CC(=O)O)c3ccccc3)ccc21 | male Sprague-Dawley rat | intraperitoneal | 10 mg/kg |  | AUC(0-t) | 4920 ng·h/mL |
| CC(=Nc1ccc(N)cc1)N(C)C | male Sprague-Dawley rat | intravenous | 20 mg/kg |  | AUC(0-t) | 3530 ng·h/mL |

A few entries again:
| SMILES | species | route | dose | setting | endpoint | result |
| --- | --- | --- | --- | --- | --- | --- |
| CCC(CC)n1c(Cc2cccs2)nc2cc(C(=O)N[C@@H](CC(=O)O)c3ccccc3)ccc21 | male Sprague-Dawley rat | intraperitoneal | 10 mg/kg |  | AUC(0-t) | 3540 ng·h/mL |
| CN1CCC[C@@H]1C(=O)N[C@@H](Cc1ccc(-c2ccccc2)cc1)B(O)O | male Sprague-Dawley rat | oral | 1 mg/kg |  | AUC(0-t) | 0.853 µM·h |
